Measurements of several laboratories.
Numbered parts are unrelated; each lists some results of a single study.
UniProt P53671, sequence (whole entry, looked up): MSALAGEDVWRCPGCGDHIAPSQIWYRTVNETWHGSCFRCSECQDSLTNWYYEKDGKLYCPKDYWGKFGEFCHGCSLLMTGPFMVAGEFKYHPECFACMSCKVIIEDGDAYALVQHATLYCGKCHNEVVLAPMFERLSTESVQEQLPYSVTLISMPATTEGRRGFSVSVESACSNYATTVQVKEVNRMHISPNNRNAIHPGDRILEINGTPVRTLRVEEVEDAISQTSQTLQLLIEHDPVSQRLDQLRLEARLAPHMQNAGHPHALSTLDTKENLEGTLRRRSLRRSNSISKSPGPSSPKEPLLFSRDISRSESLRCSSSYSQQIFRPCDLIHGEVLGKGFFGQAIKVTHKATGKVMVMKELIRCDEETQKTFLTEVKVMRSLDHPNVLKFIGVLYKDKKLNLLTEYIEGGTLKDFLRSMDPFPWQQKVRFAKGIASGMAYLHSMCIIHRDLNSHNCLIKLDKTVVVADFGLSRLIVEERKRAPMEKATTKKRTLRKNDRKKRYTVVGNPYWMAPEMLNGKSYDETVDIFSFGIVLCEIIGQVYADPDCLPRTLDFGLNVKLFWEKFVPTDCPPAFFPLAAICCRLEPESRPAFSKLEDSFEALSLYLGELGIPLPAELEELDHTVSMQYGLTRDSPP
UniProt Q16659, sequence (whole entry, looked up): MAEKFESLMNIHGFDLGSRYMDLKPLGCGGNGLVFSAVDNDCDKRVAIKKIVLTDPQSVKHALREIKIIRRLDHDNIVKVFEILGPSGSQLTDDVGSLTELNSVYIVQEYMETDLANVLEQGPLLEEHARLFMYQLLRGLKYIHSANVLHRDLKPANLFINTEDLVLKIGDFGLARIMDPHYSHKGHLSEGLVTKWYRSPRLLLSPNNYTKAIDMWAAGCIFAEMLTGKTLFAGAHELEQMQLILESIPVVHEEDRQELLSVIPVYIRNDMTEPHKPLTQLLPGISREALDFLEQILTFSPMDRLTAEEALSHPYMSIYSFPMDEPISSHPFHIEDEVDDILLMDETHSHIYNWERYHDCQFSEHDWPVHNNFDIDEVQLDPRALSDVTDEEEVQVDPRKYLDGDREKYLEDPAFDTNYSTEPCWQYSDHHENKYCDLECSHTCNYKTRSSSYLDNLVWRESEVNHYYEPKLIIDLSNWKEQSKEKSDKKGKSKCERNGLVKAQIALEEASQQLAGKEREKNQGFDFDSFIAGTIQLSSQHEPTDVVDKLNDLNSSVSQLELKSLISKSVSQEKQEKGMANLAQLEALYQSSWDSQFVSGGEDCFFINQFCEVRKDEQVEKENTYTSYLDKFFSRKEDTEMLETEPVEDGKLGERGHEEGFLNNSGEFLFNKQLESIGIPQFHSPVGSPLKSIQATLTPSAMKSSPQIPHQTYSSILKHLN
UniProt Q13464, sequence (whole entry, looked up): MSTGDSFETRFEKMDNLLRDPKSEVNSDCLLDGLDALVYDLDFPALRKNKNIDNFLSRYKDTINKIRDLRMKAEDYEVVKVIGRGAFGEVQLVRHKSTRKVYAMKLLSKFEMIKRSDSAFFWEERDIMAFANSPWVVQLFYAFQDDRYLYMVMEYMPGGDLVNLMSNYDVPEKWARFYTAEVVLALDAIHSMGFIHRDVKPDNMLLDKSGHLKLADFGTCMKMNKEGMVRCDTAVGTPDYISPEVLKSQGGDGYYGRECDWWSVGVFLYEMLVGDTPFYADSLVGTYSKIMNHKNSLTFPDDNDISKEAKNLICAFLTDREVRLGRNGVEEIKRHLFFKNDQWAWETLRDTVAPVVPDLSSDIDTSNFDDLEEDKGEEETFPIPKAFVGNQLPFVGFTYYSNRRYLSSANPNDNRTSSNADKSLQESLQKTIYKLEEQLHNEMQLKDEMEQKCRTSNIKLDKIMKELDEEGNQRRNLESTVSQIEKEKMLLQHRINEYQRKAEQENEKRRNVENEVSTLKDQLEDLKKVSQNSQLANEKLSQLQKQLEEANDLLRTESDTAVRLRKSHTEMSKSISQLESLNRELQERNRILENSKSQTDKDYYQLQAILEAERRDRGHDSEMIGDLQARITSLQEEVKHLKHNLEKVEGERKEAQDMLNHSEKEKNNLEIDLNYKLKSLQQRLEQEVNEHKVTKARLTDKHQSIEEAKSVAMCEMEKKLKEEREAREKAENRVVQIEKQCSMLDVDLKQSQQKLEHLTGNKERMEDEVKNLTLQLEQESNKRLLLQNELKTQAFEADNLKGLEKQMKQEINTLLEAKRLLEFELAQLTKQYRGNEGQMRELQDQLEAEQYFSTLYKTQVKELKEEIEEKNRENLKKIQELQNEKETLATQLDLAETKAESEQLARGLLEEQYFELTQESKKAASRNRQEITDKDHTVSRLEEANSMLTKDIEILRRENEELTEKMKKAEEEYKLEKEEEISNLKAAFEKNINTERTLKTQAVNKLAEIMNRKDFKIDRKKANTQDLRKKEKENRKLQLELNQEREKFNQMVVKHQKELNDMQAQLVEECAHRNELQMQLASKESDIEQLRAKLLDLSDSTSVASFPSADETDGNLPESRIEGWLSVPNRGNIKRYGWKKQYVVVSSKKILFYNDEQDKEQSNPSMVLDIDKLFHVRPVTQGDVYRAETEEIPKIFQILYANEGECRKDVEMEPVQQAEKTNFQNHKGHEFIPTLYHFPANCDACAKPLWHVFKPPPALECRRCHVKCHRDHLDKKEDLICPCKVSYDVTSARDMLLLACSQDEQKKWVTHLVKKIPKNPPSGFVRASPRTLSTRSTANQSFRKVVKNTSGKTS
UniProt O75914, sequence (whole entry, looked up): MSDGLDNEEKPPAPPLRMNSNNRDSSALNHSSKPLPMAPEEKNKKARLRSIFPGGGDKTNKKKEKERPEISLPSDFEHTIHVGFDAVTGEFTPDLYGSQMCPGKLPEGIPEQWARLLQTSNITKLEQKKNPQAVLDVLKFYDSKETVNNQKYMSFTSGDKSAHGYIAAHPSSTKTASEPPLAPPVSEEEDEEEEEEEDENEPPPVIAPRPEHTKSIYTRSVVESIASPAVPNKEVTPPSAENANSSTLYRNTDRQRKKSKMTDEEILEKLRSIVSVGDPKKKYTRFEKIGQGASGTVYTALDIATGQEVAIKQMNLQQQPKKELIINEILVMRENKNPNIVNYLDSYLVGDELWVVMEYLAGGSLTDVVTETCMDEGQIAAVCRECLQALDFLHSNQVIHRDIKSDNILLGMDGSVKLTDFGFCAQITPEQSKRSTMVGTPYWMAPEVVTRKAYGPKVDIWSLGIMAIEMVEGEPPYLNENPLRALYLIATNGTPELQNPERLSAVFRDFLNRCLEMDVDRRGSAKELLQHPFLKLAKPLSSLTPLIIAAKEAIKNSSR
UniProt P00519, sequence (whole entry, looked up): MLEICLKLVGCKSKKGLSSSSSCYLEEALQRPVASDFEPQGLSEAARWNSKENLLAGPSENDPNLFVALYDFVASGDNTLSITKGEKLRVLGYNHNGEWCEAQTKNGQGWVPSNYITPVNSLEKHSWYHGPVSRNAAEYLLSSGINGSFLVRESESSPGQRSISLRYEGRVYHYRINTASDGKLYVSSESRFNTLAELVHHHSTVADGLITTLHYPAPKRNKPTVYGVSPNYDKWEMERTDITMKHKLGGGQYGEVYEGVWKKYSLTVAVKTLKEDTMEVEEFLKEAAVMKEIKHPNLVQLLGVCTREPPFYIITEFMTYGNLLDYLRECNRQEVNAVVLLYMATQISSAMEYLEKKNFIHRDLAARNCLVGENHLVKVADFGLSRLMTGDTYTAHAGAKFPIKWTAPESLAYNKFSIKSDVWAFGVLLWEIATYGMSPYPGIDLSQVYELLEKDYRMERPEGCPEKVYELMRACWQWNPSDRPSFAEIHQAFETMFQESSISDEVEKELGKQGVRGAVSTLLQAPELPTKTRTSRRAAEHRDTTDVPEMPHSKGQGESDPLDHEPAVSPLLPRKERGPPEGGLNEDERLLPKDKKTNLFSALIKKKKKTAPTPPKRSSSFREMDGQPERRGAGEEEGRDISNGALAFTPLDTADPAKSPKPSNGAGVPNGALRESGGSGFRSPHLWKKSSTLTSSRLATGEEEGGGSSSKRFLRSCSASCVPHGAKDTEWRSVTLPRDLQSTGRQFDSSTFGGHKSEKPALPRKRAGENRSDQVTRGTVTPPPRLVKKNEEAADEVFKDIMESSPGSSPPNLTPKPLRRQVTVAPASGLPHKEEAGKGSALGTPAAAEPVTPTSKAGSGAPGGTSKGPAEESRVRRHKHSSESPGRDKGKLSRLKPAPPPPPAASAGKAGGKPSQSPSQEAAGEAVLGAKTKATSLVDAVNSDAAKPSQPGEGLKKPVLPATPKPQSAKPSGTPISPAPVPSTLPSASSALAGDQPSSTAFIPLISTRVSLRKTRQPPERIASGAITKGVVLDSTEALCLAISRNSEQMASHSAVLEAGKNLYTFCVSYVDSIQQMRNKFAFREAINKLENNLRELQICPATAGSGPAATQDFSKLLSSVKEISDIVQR

Study 1
Target: Sal-like protein 4, full length isoform B (SALL4, Homo sapiens, UniProt Q9UJQ4-2, residues 1-616)
Method: universal PBM
Form: double-stranded DNA, one strand shown
Matrix: in vitro
Tested at: not given
Setting: 8-mer, flanks averaged, mean of replicates
Reading: higher = stronger binding
The E-score of `GCTCACAC` is reported as -0.193.
`ACACAGGG` gave an E-score of -0.0342.
`TGCCCTAA` has an E-score of -0.1.
`GGCGAAAC` has an E-score of -0.169.
`CGCCTGTA` has an E-score of -0.0248.
With `AAGGGGCG` the E-score was -0.144.
The E-score of `CCGAAAGC` is reported as -0.199.
With `CATCCCAA` the E-score was 0.155.

Study 2
Target: Homeobox protein Hox-C11, full length (HOXC11, Homo sapiens, UniProt O43248, residues 1-304)
UniProt O43248, sequence (whole entry, looked up): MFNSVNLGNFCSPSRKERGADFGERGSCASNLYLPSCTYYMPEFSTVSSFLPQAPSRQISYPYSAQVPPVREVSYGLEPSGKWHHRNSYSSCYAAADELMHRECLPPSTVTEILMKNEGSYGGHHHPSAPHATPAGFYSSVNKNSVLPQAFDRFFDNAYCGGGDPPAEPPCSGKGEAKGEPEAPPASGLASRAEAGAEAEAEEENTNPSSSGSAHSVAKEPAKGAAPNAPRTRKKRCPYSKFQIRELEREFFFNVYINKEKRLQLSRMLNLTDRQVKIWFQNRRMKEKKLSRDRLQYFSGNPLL
Method: protein-binding microarray
Form: hairpin DNA
Matrix: in vitro
Tested at: not given
Setting: whole hairpin DNA, median over replicate spots
Baseline: not given
Reading: higher = stronger binding
Shared flanks, not repeated: GAGGCCAG … CTGGCCTCACACTC
`GTCGTTACGGCCTCCTGGCCGTAACGAC (5mC at 28)` gave a median fluorescence of 11500 a.u.
The median fluorescence of `ATCGTAAAAGCCTCCTGGCTTTTACGAT` is reported as 9230 a.u.
The median fluorescence of `GTCGTAAAGGCCTCCTGGCCTTTACGAC` is reported as 10200 a.u.
The median fluorescence of `CGCGTTAAAGCCTCCTGGCTTTAACGCG (5mC at 9 35)` is reported as 9710 a.u.
The median fluorescence of `GTTGTAAAAGCCTCCTGGCTTTTACAAC` is reported as 9180 a.u.
`GTCGCGAAAGCCTCCTGGCTTTCGCGAC` has a median fluorescence of 11100 a.u.
The median fluorescence of `GTCGTGAAAGCCTCCTGGCTTTCACGAC` is reported as 10800 a.u.
`GCCGTAAAAGCCTCCTGGCTTTTACGGC` has a median fluorescence of 9830 a.u.

Study 3
Species: mouse
Matrix: microsomes or S9
Tested at: 2 µM
Time: 0.5 h
With `C[C@H](Nc1ncnc2[nH]cnc12)c1cc2cccc(Cl)c2c(=O)n1-c1ccccc1` the remaining compound was 0.441%.
`COc1ccc([C@H](O)[C@H]2OCCN(Cc3ccccc3)C2=O)cc1` gave a remaining compound of 76%.
For `Cc1ccc(C(C)C)c(OCCNC(=O)CCCCNS(=O)(=O)c2ccccc2)c1`, the remaining compound was 0.634%.
With `Cc1cc(Br)cc(C)c1NCc1nccn1CC(=O)NC(N)=O` the remaining compound was 38.7%.

Study 4
Structure (SMILES): O=C(N1CCS(=O)(=O)CC1)N1C[C@H](c2ccc(OC(F)(F)F)cc2)C[C@H](c2nc(C3CC3)no2)C1
Read-out: cell-free assay
Method: competition with immobilised ligand
Tested at: 1 µM
It gave 94% for remaining binding (Rho-associated protein kinase 1 (ROCK1, Homo sapiens, UniProt Q13464)).
It gave 100% for remaining binding (Mitogen-activated protein kinase 6 (MAPK6, Homo sapiens, UniProt Q16659)).
The remaining binding was 92% (Tyrosine-protein kinase ABL1, phosphorylated (ABL1, Homo sapiens, UniProt P00519)).
Serine/threonine-protein kinase PAK 3 (PAK3, Homo sapiens, UniProt O75914) — remaining binding: 100%.
It gave 95% for remaining binding (LIM domain kinase 2 (LIMK2, Homo sapiens, UniProt P53671)).

Study 5
Target: Serine/threonine-protein kinase pim-2 (PIM2, Homo sapiens, UniProt Q9P1W9)
UniProt Q9P1W9, sequence (whole entry, looked up): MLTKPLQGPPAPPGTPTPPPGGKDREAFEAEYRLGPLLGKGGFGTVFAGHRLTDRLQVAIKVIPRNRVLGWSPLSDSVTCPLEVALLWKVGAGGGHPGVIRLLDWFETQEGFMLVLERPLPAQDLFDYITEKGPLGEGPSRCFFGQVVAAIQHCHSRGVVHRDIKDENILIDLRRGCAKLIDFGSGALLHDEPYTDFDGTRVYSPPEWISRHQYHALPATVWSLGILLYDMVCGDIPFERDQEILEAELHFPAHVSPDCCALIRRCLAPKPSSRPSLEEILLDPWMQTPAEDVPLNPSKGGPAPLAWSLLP
Read-out: enzyme activity
Action: inhibitor
Tested at: 0.5 µM
Baseline: control
For `CSc1nc(-c2ccnc(N[C@@H](C)c3ccccc3)c2)c(-c2ccc(F)cc2)[nH]1` (racemic), the remaining activity was 87.9%.
`CC[n+]1c(/C=C/N(C)c2ccccc2)n(-c2ccccc2)c2ccc(-c3nc4ccccc4s3)cc21` gave a remaining activity of 117%.
The remaining activity of `Fc1ccc(-c2nc3n(c2-c2ccncc2)CCS3)cc1` is reported as 121%.
`CCCC(=O)Oc1ccc2[nH]c(C(=O)c3cc4ccccc4[nH]3)cc2c1` gave a remaining activity of 101%.
With `CC(C)(C)n1nc(Cc2cccc3ccccc23)c2c(N)ncnc21` the remaining activity was 94.1%.
`Cc1cncc2cccc(S(=O)(=O)N3CCCN(C(=O)CN)C[C@@H]3C)c12` gave a remaining activity of 104%.
`O=C1NC(=O)C(c2c[nH]c3ccccc23)=C1c1c[nH]c2ccccc12` gave a remaining activity of 105%.
`CC#CC(=O)Nc1cc2c(Nc3ccc(F)c(Cl)c3)ncnc2cn1` has a remaining activity of 111%.
`N#CC(=C(N)Sc1ccc(N)cc1)c1ccccc1C(F)(F)F` has a remaining activity of 103%.
The remaining activity of `O=S(=O)(NCCNC/C=C/c1ccc(Br)cc1)c1cccc2cnccc12` is reported as 104%.
The remaining activity of `Nc1ncnc2c1cnn2-c1ccccc1` is reported as 98.2%.
`NC(=O)c1ccc(N(C(N)=O)c2c(F)cccc2F)nc1-c1ccc(F)cc1F` gave a remaining activity of 98.3%.
`CC(=O)c1ccc(N2CCOCC2)cc1O` has a remaining activity of 117%.
`O=C1Cc2c([nH]c3ccc([N+](=O)[O-])cc23)-c2ccccc2N1` gave a remaining activity of 113%.
For `Nc1nc(Nc2ccc(S(N)(=O)=O)cc2)nn1C(=O)c1c(F)cccc1F`, the remaining activity was 113%.
`CCc1[nH]c(-c2ccc(OC)cc2)nc1-c1ccncc1` gave a remaining activity of 105%.
With `Cc1cc(Nc2nc(-c3ccccc3)nc3ccccc23)n[nH]1` the remaining activity was 92.7%.
For `Oc1ccc(Nc2nc(-c3ccc(Cl)cc3)cs2)cc1`, the remaining activity was 106%.

Repeated from above (study 2):
`GTCGTTACGGCCTCCTGGCCGTAACGAC (5mC at 28)` gave a median fluorescence of 11500 a.u.
`GTCGCGAAAGCCTCCTGGCTTTCGCGAC` has a median fluorescence of 11100 a.u.
The median fluorescence of `GTTGTAAAAGCCTCCTGGCTTTTACAAC` is reported as 9180 a.u.
The median fluorescence of `GTCGTGAAAGCCTCCTGGCTTTCACGAC` is reported as 10800 a.u.
The median fluorescence of `ATCGTAAAAGCCTCCTGGCTTTTACGAT` is reported as 9230 a.u.
The median fluorescence of `CGCGTTAAAGCCTCCTGGCTTTAACGCG (5mC at 9 35)` is reported as 9710 a.u.
The median fluorescence of `GTCGTAAAGGCCTCCTGGCCTTTACGAC` is reported as 10200 a.u.
